Published values pooled from the literature.
Every numbered part comes from another study and shows a few of its results, in no order. Substitutions count along the parent as printed.

Study 1
Target: Histone acetyltransferase KAT6A, both winged helices, GST fusion (KAT6A, Homo sapiens, UniProt Q92794, residues 1-181)
Technique: protein binding microarray
Form: double-stranded DNA, one strand shown
Medium: in vitro
Tested at: not given
Notes: 8-mer, flanks averaged, mean of 2 arrays, mostly near background
Relative to: not given
Reading: higher = stronger binding
Measurement: E-score
Target sequence (chain): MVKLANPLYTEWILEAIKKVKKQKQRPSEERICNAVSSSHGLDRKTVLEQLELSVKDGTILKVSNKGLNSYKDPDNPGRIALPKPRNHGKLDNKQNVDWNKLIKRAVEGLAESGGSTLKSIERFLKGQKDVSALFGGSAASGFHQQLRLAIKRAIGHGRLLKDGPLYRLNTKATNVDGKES
ACTCCTCA: -0.189
TAAATGGA: -0.0817
ATGCGCAA: 0.265
ATTAAAAG: -0.0524
CATCCGTC: 0.162
TAGTCTAA: -0.113
AATTTCGG: 0.12
AAGTCTTC: -0.21

Study 2
Target: RNA binding protein fox-1 homolog 2, RRM domain, GST-SBP tag (RBFOX2, Homo sapiens, UniProt O43251-10, residues 100-194)
Technique: RNA Bind-n-Seq
Form: RNA
Medium: in vitro
Tested at: 365 nM
Notes: natural RNA segment, single round, ends assumed
Relative to: no-protein control
Reading: higher = stronger binding
Measurement: RBNS enrichment (R)
Target sequence (chain): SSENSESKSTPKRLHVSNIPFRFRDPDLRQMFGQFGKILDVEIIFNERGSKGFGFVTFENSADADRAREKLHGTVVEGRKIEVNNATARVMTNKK
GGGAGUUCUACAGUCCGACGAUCCUUUGCAAUAUUUAAGAACCUAAUGCUGUUUAAUUUUGGUACAGCUUCCACAUUGCAUGUUCACUUUAGUAUUUGCAAUUUGAUAUAUUUCAUGGUGGCAAAAUAUUAGCUGGAAUUCUCGGGUGCCAA: 3.09
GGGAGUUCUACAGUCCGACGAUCAGUCAAAAGCAAGCUGGGUUUGCAGCCCACUCCAGCCCAUGGCCUGUUGCCCAGCUCUGUAGACAUCCCUGCUCCCCAGCUGCCCAAAGACCCCCUCCCCAUUGAUGCCAUGGAAUUCUCGGGUGCCAA: 0.679
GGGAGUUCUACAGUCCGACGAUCCACACAAAAAAAGGGCAGUGUUUGAAGAUUGUUGAUUUUUUUCUGGGGAUAAUCUAUAUUAUAUUGACUUCCUAUUACUUAUUAUAAACCUGUGUUUGUAUUGGAGAUGUUGGAAUUCUCGGGUGCCAA: 0.794
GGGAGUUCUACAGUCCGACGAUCCACUGGGAACAAACAGCCUCGCGCUCUAUACCAAACAGCCUCGCGCUCUAUCCCAGUCGCCCAUUAGCUUGAUUCAAACAAAGCCCCAGCAGGCCUUUGCGUUUUUAUCCUGGAAUUCUCGGGUGCCAA: 0.335
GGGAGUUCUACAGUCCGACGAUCAAUGGGUAAUAAGGUGCAAAAUAAAGGGGUAAGGGGGGAGUUUUCUAUCUGUCCUGUUCUCUGUUAUCUCCAAGUCCUGAUUCUGUUGCCUCCAGCCCGAGCCUCCUCUCUGGAAUUCUCGGGUGCCAA: 0.217
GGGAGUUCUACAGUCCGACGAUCUUUGUGCACACACACAGGGCUCUUGUGUGUGUUGUCAAGGGGACCCUCCGUGGCCUCCCGUGAGUGCAUGCCUGUAGUGCACAGUGUCUCUACAGGUGUCUUCUGGGGGGUGGAAUUCUCGGGUGCCAA: 0.223
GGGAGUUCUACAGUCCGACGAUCGAGCAGGCUUCAAACGAUGUGAAAUAAGCUGAGAUGGCUACAUGAUAUUCUUCAUCUCAUCCUGUGGGAUUCUGCAAUCAUAAAACACAGGAAAGGGGAAUUCUGUGAUGUGGAAUUCUCGGGUGCCAA: 0.58
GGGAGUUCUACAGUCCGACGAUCCCACUGGGAUCACAGCAUUUCGGGGAACAUUGCCACACCAGUCAGAGAGCCCAGAACACCUGGGCAAGUAGGCGGACUGGCAGCCUGGCUCUGGGCCCUCGUCCACCGGGUGGAAUUCUCGGGUGCCAA: 0.536

Study 3
Target: Fragile X messenger ribonucleoprotein 1, C-terminal low-complexity region (Fmr1, Mus musculus, UniProt P35922)
Technique: RNA Bind-n-Seq
Form: RNA
Medium: in vitro
Tested at: 200 nM
Notes: whole 134-nt RNA, ends assumed
Added: 150 mM LiCl
Relative to: input library
Reading: higher = stronger binding
Measurement: log2 enrichment
Each molecule: 7-deaza-guanosine replaces G
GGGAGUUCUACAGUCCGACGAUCCCUCAAGUCCUGUGCUACACAUCGUAUGUACCGAAUCGGUUUGGAGGAAAGGAAAGUAUUAUGUUACGCCGUUCGGAUCUGCACUUCCAGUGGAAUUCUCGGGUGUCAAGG: -0.328
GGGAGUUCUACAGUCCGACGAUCAGUCCUGUGCUACACAUCGUAUGUACCGAAUCGGGGAAAAGGGAAAAGGGGAAAAGGAAAGUAUUAUGUUACGCCGUUCGGAUCUGCACUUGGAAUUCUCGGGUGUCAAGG: -0.8
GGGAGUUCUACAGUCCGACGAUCCACAGACAACACGCACCCACACAGACACAGAGGGAAGGGGUUGGGAUGGGGACAGAAAGCACAGCAGGGCGGGGUAGGACCCCAGCCCCUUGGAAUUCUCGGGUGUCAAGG: 0.364
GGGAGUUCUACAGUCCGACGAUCGCAGGAAGUAAAAACAAAUGGAAAUGCUUCGGAUAGUGGCAGGGGUGGGAGUUGCUAAGGAAAGGGUGGGAUGGGAGUGGGUAAAGAGUUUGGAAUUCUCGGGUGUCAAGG: 1.42
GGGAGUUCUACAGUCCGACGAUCAAGUCCUGUGCUACACAUCGUAUGUACCGAAUCGGCCCCGGGGCCCCGGGCCCCGGGAAAGUAUUAUGUUACGCCGUUCGGAUCUGCACUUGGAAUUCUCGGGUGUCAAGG: -2.5
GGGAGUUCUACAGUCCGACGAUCGUCCUGUGCUACACAUCGUAUGUACCGAAUCGGGGCCCCCGGGCCCCCGGGCCCCCGGAAAGUAUUAUGUUACGCCGUUCGGAUCUGCACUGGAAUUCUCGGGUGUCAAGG: -2.83
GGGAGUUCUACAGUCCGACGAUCCCUGUGCUACACAUCGUAUGUACCGAAUCGGAAAAAAAGGGAAAAAAAGGAAAAAAAGGGAAAGUAUUAUGUUACGCCGUUCGGAUCUGCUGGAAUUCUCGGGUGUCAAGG: -0.685
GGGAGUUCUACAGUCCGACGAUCUCCUCAAGUCCUGUGCUACACAUCGUAUGUACCGAAUCGUGUGUGUGUGUGUAAAGUAUUAUGUUACGCCGUUCGGAUCUGCACUUCCAGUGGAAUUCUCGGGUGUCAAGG: 0.701

Mixed results
Starting sequence: viral docking peptide; PGASRRLFGSSAD
G2A  normalised enrichment score (CCND2, cyclin fold, Cln2 fusion (human); yeast growth competition, sequencing; yeast; weak parent motif; relative to: not given, higher = stronger binding): 0.339

Excerpt of the above (study 3):
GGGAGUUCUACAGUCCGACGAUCCCUGUGCUACACAUCGUAUGUACCGAAUCGGAAAAAAAGGGAAAAAAAGGAAAAAAAGGGAAAGUAUUAUGUUACGCCGUUCGGAUCUGCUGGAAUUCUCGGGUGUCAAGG: -0.685
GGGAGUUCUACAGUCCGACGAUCGCAGGAAGUAAAAACAAAUGGAAAUGCUUCGGAUAGUGGCAGGGGUGGGAGUUGCUAAGGAAAGGGUGGGAUGGGAGUGGGUAAAGAGUUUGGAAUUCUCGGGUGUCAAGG: 1.42
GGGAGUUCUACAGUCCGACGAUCCACAGACAACACGCACCCACACAGACACAGAGGGAAGGGGUUGGGAUGGGGACAGAAAGCACAGCAGGGCGGGGUAGGACCCCAGCCCCUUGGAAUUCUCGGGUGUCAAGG: 0.364
